Experimental data from different studies.
Each line is one published result; not all experiments were run side by side.
Read-out: metabolic stability
Species: human
Matrix: liver microsomes

SMILES	setting	microsomal CLint [µL/min/mg]
Cc1cc(C)c(C#N)c(SCC(=O)N2CCOCC2)n1	0.5 µM, pH 7.4	32
COc1cccc(CCc2ccccc2OCC(CN(C)C)OC(=O)CCC(=O)O)c1 (racemic)	0.4 µM	17.4
CCNc1[nH]c(=O)n(O)c(=O)c1C(=O)NCc1ccc(F)cc1		336
CCOC(=O)c1cn(CC)c2cc(N3CCC(Cc4ccccc4)CC3)c(F)cc2c1=O	1 µM	193
Cc1nnc(S(=O)(=O)CC(=O)C23CC4CC(CC(C4)C2)C3)s1		19
CCNc1[nH]c(=O)n(O)c(=O)c1C(=O)NCc1ccccc1		355
Cc1cc(C)c(C#N)c(SCC(=O)c2ccsc2)n1	0.5 µM, pH 7.4	541
COc1cc(CO)c(-c2ccc3c(c2O)[C@@H](C)N[C@H](C)C3)c2cccc(O)c12	1 µM	< 11.6
Cc1cc(C)c(C#N)c(OCC(=O)c2ccccc2)n1	0.5 µM, pH 7.4	342
CCn1cc(-c2nc(C)no2)c(=O)c2cc(F)c(N3CCC(Cc4ccccc4)CC3)cc21	1 µM	102
O=C(C[S+]([O-])Cc1ccco1)C12CC3CC(CC(C3)C1)C2 (stereo not drawn)		17.6
CCNc1[nH]c(=O)n(O)c(=O)c1C(=O)NCc1ccc(C)c(F)c1		357

Some of these lines once more:
SMILES	setting	microsomal CLint [µL/min/mg]
Cc1cc(C)c(C#N)c(OCC(=O)c2ccccc2)n1	0.5 µM, pH 7.4	342
